Results gathered from unrelated publications.
Values joined by “and” are separate records of one study, mostly repeats; a detail may differ.
STING1 H232R: Stimulator of interferon genes protein (STING1, Homo sapiens, UniProt Q86WV6, H232R)

SMILES	tested on	assay	test system	setting	how to read	quantity	result
CO[C@@H]1[C@@H](OC(N)=O)[C@@H](O)[C@H](Oc2ccc3c(O)c(NC(=O)c4ccc(O)c(CC=C(C)C)c4)c(=O)oc3c2C)OC1(C)C	DLD-1 BRCA2-/-			100 µM, replicate B	baseline: untreated	colony survival	0.312%
O=C(N[C@@H](CCCCNC(=O)c1ccc([N+](=O)[O-])o1)c1nc2ccccc2[nH]1)c1ccc(-c2cccnc2)cc1	STING1 H232R	reporter gene, inhibitor	THP1-Dual KI-hSTING-R232	24 h, 1 h preincubation, together with: diABZI 500 nM		EC50	3.2 µM
COc1ccc2c(c1)c(CC(=O)[Se]CC(=O)Nc1cccc(C(F)(F)F)c1)c(C)n2C(=O)c1ccc(Cl)cc1	NCI60 breast subpanel mean	cell growth				TGI	4.25 µM
CNS(=O)(=O)Nc1nccc(Cc2c(C)c3ccc(Oc4ncccc4F)cc3oc2=O)c1F	NCI-H716	cell viability		7 days		IC50	0.0254 µM
Cc1ncsc1-c1ccc(C(C)NC(=O)C2CC(O)CN2C(=O)C(NC(=O)CCCCCCCCCCN2CCCC(Nc3ncc(Cl)c(Nc4ccccc4S(=O)(=O)C(C)C)n3)C2)C(C)(C)C)cc1 (stereo not drawn)	22Rv1	RNA-seq, item: NUFIP2 mRNA		concentration not given	baseline: DMSO	log2 fold change	-1.19
Cn1ncc2cc(-c3cncc(Cl)c3N3CCC4(CCNC4=O)CC3)ccc21	LS174T	gene expression, microarray, item: NOD2 (CARD15) mRNA		concentration not given, 4 h	baseline: untreated cells	log2 fold change	1.05
COC1CN([C@H]2CC[C@H]([C@@]3(C)Oc4c(Cl)cc(C(=O)NCc5c(SC)cc(C)[nH]c5=O)c(C)c4O3)CC2)C1		RNA-seq, item: SPTBN4	human, whole blood	dose not given, 24 h	baseline: pretreatment baseline	log2 fold change	2.15
CCN(CC)CC(=O)Nc1cccc(-n2cc(-c3ccc4ccc(-c5cn(-c6cccc(NC(=O)CN(CC)CC)c6)nn5)cc4c3)nn2)c1	RCC4	PCR angiogenesis array, item: NOTCH4		5 x IC50, 4 h, normoxia	baseline: untreated	fold regulation	1.03
CC(C)c1ccc(N(C)c2ccc3c(c2)OCC[C@H]3CNc2cnccc2C(=O)O)cc1	TE-5	cell growth or viability, ATP luminescence		7 days		IC50	0.00847 µM
O=C(N[C@@H](CCCCNC(=O)c1ccc([N+](=O)[O-])o1)c1nc2ccccc2[nH]1)c1ccc(-c2ccccn2)cc1	STING1 H232R	reporter gene, inhibitor	THP1-Dual KI-hSTING-R232	24 h, 1 h preincubation, together with: diABZI 500 nM		EC50	5.3 µM
COc1ccccc1-c1ccncc1C(=O)Nc1nnc(OCc2ccc(Cl)cc2)s1	DLD-1 parental			0.125 µM, single replicate		colony count	78 and 75 and 65 and 81 and 68
CN1CCCNC(=O)c2cccc(c2)C(=O)NCCCN(C)CCCNc2cccc3c2C(=O)c2cccc(c2C3=O)NCCC1	SAS	RNA-Seq, item: TBK1 mRNA		1 µM, 6 h	baseline: untreated cells	log2 fold change	-0.829

Excerpt of the above:
SMILES	tested on	assay	test system	setting	how to read	quantity	result
O=C(N[C@@H](CCCCNC(=O)c1ccc([N+](=O)[O-])o1)c1nc2ccccc2[nH]1)c1ccc(-c2cccnc2)cc1	STING1 H232R	reporter gene, inhibitor	THP1-Dual KI-hSTING-R232	24 h, 1 h preincubation, together with: diABZI 500 nM		EC50	3.2 µM
